Measured values of several laboratories.
Protocols differ between the studies behind these lines.

SMILES | organism | test | test system | conditions | scale | MIC
CO[C@H]1/C=C/O[C@@]2(C)Oc3c(C)c(O)c4c(c3C2=O)C2=NC3(CCN(CC(C)C)CC3)NC2=C(NC(=O)/C(C)=C\C=C\[C@H](C)[C@H](O)[C@@H](C)[C@@H](O)[C@@H](C)[C@H](OC(=O)c2ccccc2-c2ccccc2)[C@@H]1C)C4=O | Mycobacteroides abscessus | – | ATCC 19977 wild type | 90% growth inhibition | – | 0.26 µM
C=CCNCc1cc(N(C)C)c2c(c1O)C(=O)C1=C(O)[C@]3(O)C(=O)C(C(N)=O)=C(O)[C@@H](N(C)C)[C@@H]3C[C@@H]1C2 | Enterococcus faecium | – | 494, Tet M and Tet L | – | – | 2 µg/mL
CC1C=CC=CC(C)C2C=CC3CC(C)(O)C(Cl)C(C)C3C2C(=O)C(Cl)(Cl)C(=O)C(C)C(=O)O1 (stereo not shown) | Staphylococcus aureus | microbial growth, broth dilution | NEWMAN | – | – | 0.2 µg/mL
CC(C)=CCc1cc([C@@H]2CC(=O)c3ccc(O)c(CC=C(C)C)c3O2)c(O)c(CC=C(C)C)c1O | Streptococcus pyogenes | – | ATCC 19615 | – | – | inactive
CO[C@H]1/C=C/O[C@@]2(C)Oc3c(C)c(O)c4c(c3C2=O)C2=NC3(CCN(CC(C)C)CC3)NC2=C(NC(=O)/C(C)=C\C=C\[C@H](C)[C@H](O)[C@@H](C)[C@@H](O)[C@@H](C)[C@H](OC(=O)c2cccc(C)c2)[C@@H]1C)C4=O | Mycobacteroides abscessus | – | ATCC 19977 wild type | 90% growth inhibition | – | 0.075 µM
CN[C@@H]1[C@H](O)[C@H](NC)[C@H]2O[C@]3(O)[C@H](O[C@@H]2[C@H]1O)O[C@H](C)C[C@@]3(O)CNCCc1ccc(F)cc1 | Streptococcus | – | – | – | as low as | 1.6 µg/mL
CCCCCCCCCCCCCCCCCCCCCCSCC1OC(OC2C(N)CC(N)C(OC3OC(CN)C(O)CC3N)C2O)C(O)C(N)C1O (stereo not shown) | Streptococcus pyogenes | – | M12 MGAS9429 | – | – | > 150 µg/mL
CN[C@@H]1[C@H](O)[C@H](NC)[C@H]2O[C@]3(O)[C@H](O[C@@H]2[C@H]1O)O[C@H](C)C[C@]3(O)CNCCc1nccs1 | Mycobacteroides abscessus | microbial growth | ATCC19977 | 5 days | – | > 200 µg/mL
CC(=O)N[C@H](CCCCN)C(=O)N[C@H](CC(C)C)C(=O)N[C@H](CCCCN)C(=O)N[C@H](CO)C(=O)N[C@H](CC(C)C)C(=O)N[C@H](CC(C)C)C(=O)N[C@H](CCCCN)C(=O)N[C@@H](C(=O)N[C@H](CC(C)C)C(=O)N[C@H](CO)C(=O)N[C@H](CCCCN)C(=O)N[C@H](C)C(=O)N[C@H](CCCCN)C(=O)N[C@H](CCCCN)C(=O)N[C@H](CCCCN)C(=O)N[C@H](CC(C)C)C(=O)N[C@H](CC(C)C)C(=O)N[C@H](CCCCN)C(=O)N[C@@H](C(=O)N[C@H](C)C(=O)N[C@H](CC(C)C)C(=O)N[C@H](CCCCN)C(=O)N[C@H](C)C(=O)N[C@H](CC(C)C)C(=O)N[C@H](CO)C(=O)N[C@H](CCCCN)C(N)=O)[C@H](C)O)[C@H](C)O | Acinetobacter baumannii | – | 649, Mueller-Hinton broth | 24 h, 37 °C | – | 0.3 µM
CO[C@H]1/C=C/O[C@@]2(C)Oc3c(C)c(O)c4c(c3C2=O)C2=NC3(CCN(CC(C)C)CC3)NC2=C(NC(=O)/C(C)=C\C=C\[C@H](C)[C@H](O)[C@@H](C)[C@@H](O)[C@@H](C)[C@H](OC(=O)c2ccc(C)cc2)[C@@H]1C)C4=O | Mycobacteroides abscessus | – | ATCC 19977 wild type | 90% growth inhibition | – | 0.2 µM
CCCCCCCCCCCC[S+]([O-])CC1OC(OC2C(N)CC(N)C(OC3OC(CN)C(O)CC3N)C2O)C(O)C(N)C1O (mixture of isomers) | Streptococcus mutans | – | UA159 | – | – | 9.4 µg/mL
CCC(C)C(=O)OC1C(C)C(OC)C=COC2(C)Oc3c(C)c(O)c4c(c3C2=O)C2=NC3(CCN(CC(C)C)CC3)NC2=C(NC(=O)C(C)=CC=CC(C)C(O)C(C)C(O)C1C)C4=O (mixture of isomers) | Mycobacteroides abscessus | – | ATCC 19977 wild type | 90% growth inhibition | – | 1.1 µM
CC[C@@H](C)[C@@H](NC(=O)[C@@H](C)NC(=O)[C@@H](CCCCN)NC(=O)[C@@H](CC(C)C)NC(=O)[C@@H](C)NC(=O)[C@H](NC(=O)[C@@H](CCCCN)NC(=O)[C@@H](CC(C)C)NC(=O)[C@H](NC(=O)[C@@H](CCCCN)NC(=O)[C@@H](CCCCN)NC(=O)[C@@H](CCCCN)NC(=O)[C@@H](C)NC(=O)[C@@H](CCCCN)NC(=O)[C@@H](CO)NC(=O)[C@@H](Cc1ccccc1)NC(=O)[C@H](NC(=O)[C@@H](CCCCN)NC(=O)[C@@H](CC(C)C)NC(=O)[C@@H](Cc1ccccc1)NC(=O)[C@@H](CO)NC(=O)[C@@H](CCCCN)NC(=O)[C@@H](Cc1c[nH]c2ccccc12)NC(=O)[C@@H](CCCCN)NC(C)=O)[C@H](C)O)C(C)C)[C@H](C)O)C(=O)N[C@H](CO)C(=O)N[C@H](CCCCN)C(N)=O | Acinetobacter baumannii | broth microdilution | ATCC 17978 | 24 h, 37 °C | – | 0.7 µM
CC(C)=CCc1cc2c(cc1O)OC[C@H]1c3ccc(O)c(CC=C(C)C)c3O[C@@H]21 | Streptococcus pyogenes | – | ATCC 19615 | – | – | 2 µg/mL
CN(C)c1cc(CNCc2ccc(O)cc2)c(O)c2c1C[C@H]1C[C@H]3[C@H](N(C)C)C(O)=C(C(N)=O)C(=O)[C@@]3(O)C(O)=C1C2=O | Enterococcus faecium | – | 494, Tet M and Tet L | – | – | 8 µg/mL
CC1(C)S[C@@H]2[C@H](NC(=O)[C@H](NC(=O)C3=C(O)C(c4ccccc4F)NC3=O)c3ccccc3)C(=O)N2[C@H]1C(=O)O (stereo partly shown) | Proteus vulgaris | microbial growth, broth dilution | ATCC33420 | – | – | 6.25 µg/mL
COc1ccc2c(c1CC=C(C)C)O[C@H]1c3cc(CC=C(C)C)c(O)cc3OC[C@@H]21 | Streptococcus pyogenes | – | ATCC 19615 | – | – | 128 µg/mL
CC(=O)N[C@H](CCCCN)C(=O)N[C@H](CC(C)C)C(=O)N[C@H](CCCCN)C(=O)N[C@H](CO)C(=O)N[C@H](CC(C)C)C(=O)N[C@H](CC(C)C)C(=O)N[C@H](CCCCN)C(=O)N[C@@H](C(=O)N[C@H](CC(C)C)C(=O)N[C@H](CO)C(=O)N[C@H](CCCCN)C(=O)N[C@H](C)C(=O)N[C@H](CCCCN)C(=O)N[C@H](CCCCN)C(=O)N[C@H](CCCCN)C(=O)N[C@H](CCCCN)C(=O)N[C@H](CC(C)C)C(=O)N[C@H](CCCCN)C(=O)N[C@@H](C(=O)N[C@H](CC(C)C)C(=O)N[C@H](CC(C)C)C(=O)N[C@H](CCCCN)C(=O)N[C@H](C)C(=O)N[C@H](CC(C)C)C(=O)N[C@H](CO)C(=O)N[C@H](CCCCN)C(N)=O)[C@H](C)O)[C@H](C)O | Acinetobacter baumannii | – | 821, Mueller-Hinton broth | 24 h, 37 °C | – | 0.3 µM
CN(C)c1cc(CN2CCOCC2)c(O)c2c1C[C@H]1C[C@H]3[C@H](N(C)C)C(O)=C(C(N)=O)C(=O)[C@@]3(O)C(O)=C1C2=O | Enterococcus faecium | – | 494, Tet M and Tet L | – | – | 2 µg/mL
O=C(NCc1nc(-c2ccc(Br)cc2)c[nH]1)Nc1ncc(Sc2ccccn2)s1 | Streptococcus pyogenes | broth microdilution | ATCC 19615 | added: verapamil 50 µg/mL | – | 0.125 µM
COc1ccc([C@@H]2CC(=O)c3c(O)cc(O[C@@H]4O[C@H](CO[C@@H]5O[C@@H](C)[C@H](O)[C@@H](O)[C@H]5O)[C@@H](O)[C@H](O)[C@H]4O)cc3O2)cc1O | Trichophyton mentagrophytes | microbial growth | – | – | – | 12.5 µM
CCC(CC)C(=O)O[C@H]1[C@H](C)[C@H](O)[C@H](C)[C@@H](O)[C@@H](C)/C=C/C=C(/C)C(=O)NC2=C3NC4(CCN(CC(C)C)CC4)N=C3c3c(c(O)c(C)c4c3C(=O)[C@@](C)(O/C=C/[C@H](OC)[C@H]1C)O4)C2=O | Mycobacteroides abscessus | – | ATCC 19977 wild type | 90% growth inhibition | – | 1.15 µM
COc1ccc2c(c1CC=C(C)C)O[C@H]1c3cc4c(cc3OC[C@@]21O)OC(C)(C)C=C4 | Streptococcus pyogenes | – | ATCC 19615 | – | – | inactive
CN[C@@H]1[C@H](O)[C@H](NC)[C@H]2O[C@]3(O)[C@H](O[C@@H]2[C@H]1O)O[C@H](C)C[C@@]3(O)CNCCc1ccccc1 | Mycobacteroides abscessus | microbial growth | ATCC19977 | 5 days | – | 4 µg/mL
CC(C)C[C@H](NC(=O)[C@H](CC(N)=O)NC(=O)[C@H](CCCNC(=N)N)NC(=O)[C@@H](CC(C)C)NC(=O)[C@H](Cc1ccccc1)NC(=O)[C@H](CC(=O)O)NC(=O)[C@H](CCCCN)NC(=O)[C@@H](CC(C)C)NC(=O)[C@H](CCCNC(=N)N)NC(=O)[C@H](CCC(N)=O)NC(=O)[C@@H](NC(=O)[C@@H](CC(C)C)NC(=O)[C@H](CCCNC(=N)N)NC(=O)[C@H](CCCCN)NC(=O)[C@H](Cc1ccccc1)NC(=O)CN)C(C)C)C(=O)N[C@H](C(N)=O)C(C)C | Escherichia coli, Acinetobacter baumannii, Enterobacter cloacae | – | – | – | – | 6.2 to 25 µM

Excerpt of the above:
SMILES | organism | test | test system | conditions | scale | MIC
CC(C)=CCc1cc([C@@H]2CC(=O)c3ccc(O)c(CC=C(C)C)c3O2)c(O)c(CC=C(C)C)c1O | Streptococcus pyogenes | – | ATCC 19615 | – | – | inactive
CN[C@@H]1[C@H](O)[C@H](NC)[C@H]2O[C@]3(O)[C@H](O[C@@H]2[C@H]1O)O[C@H](C)C[C@]3(O)CNCCc1nccs1 | Mycobacteroides abscessus | microbial growth | ATCC19977 | 5 days | – | > 200 µg/mL
CC(=O)N[C@H](CCCCN)C(=O)N[C@H](CC(C)C)C(=O)N[C@H](CCCCN)C(=O)N[C@H](CO)C(=O)N[C@H](CC(C)C)C(=O)N[C@H](CC(C)C)C(=O)N[C@H](CCCCN)C(=O)N[C@@H](C(=O)N[C@H](CC(C)C)C(=O)N[C@H](CO)C(=O)N[C@H](CCCCN)C(=O)N[C@H](C)C(=O)N[C@H](CCCCN)C(=O)N[C@H](CCCCN)C(=O)N[C@H](CCCCN)C(=O)N[C@H](CCCCN)C(=O)N[C@H](CC(C)C)C(=O)N[C@H](CCCCN)C(=O)N[C@@H](C(=O)N[C@H](CC(C)C)C(=O)N[C@H](CC(C)C)C(=O)N[C@H](CCCCN)C(=O)N[C@H](C)C(=O)N[C@H](CC(C)C)C(=O)N[C@H](CO)C(=O)N[C@H](CCCCN)C(N)=O)[C@H](C)O)[C@H](C)O | Acinetobacter baumannii | – | 821, Mueller-Hinton broth | 24 h, 37 °C | – | 0.3 µM
